Assay results pooled from the literature.
Every numbered part comes from another study and shows a few of its results, in no order.

Study 1 — mode: inhibitor; concentration: 20 µM
Target: Replicase polyprotein 1ab, nsp13 helicase (rep, Severe acute respiratory syndrome coronavirus 2, UniProt P0DTD1)
COC(=O)Nc1nc2cc(Sc3ccccc3)ccc2[nH]1 has an inhibition of -4.7%.
With O=C1C[C@@H](c2ccc(O)cc2)Oc2cc(O)cc(O)c21 the inhibition was 1.49%.
For COc1ccccc1N1CCN(CC(O)COc2cc(OC)c(OC)c(OC)c2)CC1 (stereo not drawn), the inhibition was -1.18%.
NC(=O)c1ncn([C@@H]2O[C@H](CO)[C@@H](O)[C@H]2O)c1N has an inhibition of 5.83%.
With CN1C(=O)N(c2cc(Cl)cc(Cl)c2)C(=O)[C@]12CN(Cc1cc(C(=O)O)cs1)C[C@H]2c1ccc(C#N)cc1 the inhibition was 1.07%.
With O=C1[C@H](Cc2ccc(O)cc2)N2C(=O)CCN(C(=O)NCc3ccccc3)[C@H]2CN1Cc1cccc2ccccc12 the inhibition was 9.12%.
For FC(F)(F)c1ccc(CNc2ccc(Cc3c[nH]c4ncccc34)cn2)cc1, the inhibition was 3.49%.
With CN1CCc2cccc3c2[C@H]1Cc1ccc(O)c(O)c1-3 the inhibition was 9.14%.
For CCN(CC)CCCCC1CCN(CC(=O)N2c3ccccc3C(=O)Nc3cccnc32)CC1, the inhibition was 1.93%.
The inhibition of CC(C)N(CCCCOCC(=O)NS(C)(=O)=O)c1cnc(-c2ccccc2)c(-c2ccccc2)n1 is reported as 9.46%.
Cc1ncc([N+](=O)[O-])n1CCO gave an inhibition of 2.44%.
With COc1ccc2cc(CCC(C)=O)ccc2c1 the inhibition was 0.57%.
Clc1cccc(Cl)c1CSc1nnc(-c2cnccn2)s1 gave an inhibition of 3.26%.
CC=CC1=C(C(=O)O)N2C(=O)[C@@H](NC(=O)[C@H](N)c3ccc(O)cc3)[C@H]2SC1 gave an inhibition of 6.13%.
NC1=NCN([C@H]2C[C@H](O)[C@@H](CO)O2)C(=O)N1 gave an inhibition of 5.15%.
With OC[C@@H](O)[C@H]1O[C@@H]2O[C@H](C(Cl)(Cl)Cl)O[C@@H]2[C@H]1O the inhibition was 8.69%.
COc1cc2c(NC3CCN(C)CC3)nc(N3CCCN(C)CC3)nc2cc1OCCOCCN(C)C gave an inhibition of 33.3%.
The inhibition of COc1ccc(-c2oc3c(CC=C(C)C)c(O)cc(O)c3c(=O)c2O)cc1 is reported as 8.13%.
O=C(O)Cc1ccc2c(c1)C(=O)c1ccccc1CO2 gave an inhibition of 0.22%.
Cc1ccsc1/C=C/C1=NCCCN1C gave an inhibition of 0.91%.
With CN(C)[C@@H]1C(O)=C(C(N)=O)C(=O)[C@@]2(O)C(O)=C3C(=O)c4c(O)ccc(Cl)c4[C@@H](O)[C@H]3C[C@@H]12 the inhibition was 3.53%.
CCc1c(C(=O)C(N)=O)c2c(OCC(=O)O)cccc2n1Cc1ccccc1 gave an inhibition of 4.02%.
For CC(C)C(=O)c1ccc(O)c(O)c1, the inhibition was -0.45%.
For CN(C)N=Nc1ccc(C(=O)O)cc1, the inhibition was 1.89%.
With Cc1[nH]cnc1-c1ccc(Cl)cc1 the inhibition was 8.84%.

Study 2 — technique: protein binding microarray; molecule type: double-stranded DNA, one strand shown; medium: in vitro; concentration: not given; relative to: not given; reading: higher = stronger binding
Target: Histone acetyltransferase KAT6A, winged helix 2, GST fusion (KAT6A, Homo sapiens, UniProt Q92794, residues 85-181)
Notes: 8-mer, flanks averaged, mean of 2 arrays, mostly near background
Target sequence (chain): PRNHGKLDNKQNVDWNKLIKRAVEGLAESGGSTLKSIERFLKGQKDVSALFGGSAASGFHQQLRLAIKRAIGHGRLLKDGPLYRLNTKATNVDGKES
`CAGGATCA` has an E-score of 0.0185.
`ATAAATCG` gave an E-score of 0.0766.
For `ATCGGTGC`, the E-score was 0.063.
`CGTGACTA` has an E-score of -0.0457.
`CTCACCGC` gave an E-score of 0.113.
`CTTGGGGC` has an E-score of 0.1.
With `CGGGATAA` the E-score was 0.00644.
`GCGGTTTA` gave an E-score of -0.0271.

Study 3 — cell line: HEK-293T/ACE2; concentration: 10 µM; time: 16 h; relative to: vehicle
The viability of CCC(Cc1c(I)cc(I)c(N)c1I)C(=O)O (stereo not drawn) is reported as 101%.
With OC(c1cc(C(F)(F)F)nc2c(C(F)(F)F)cccc12)C1CCCCN1 (stereo not drawn) the viability was 94.8%.
N=C(N)NC(=O)Cc1c(Cl)cccc1Cl has a viability of 102%.
C[C@]12C=CC(=O)C=C1CC[C@H]1[C@@H]3C[C@@H](O)[C@](O)(C(=O)CO)[C@@]3(C)C[C@H](O)[C@@]12F gave a viability of 102%.

Study 4 — technique: RNA Bind-n-Seq; molecule type: RNA; medium: in vitro; concentration: 1 µM; notes: whole 134-nt RNA, ends assumed; added: 150 mM KCl; relative to: input library; reading: higher = stronger binding
Target: Ras GTPase-activating protein-binding protein 1, C-terminal RGG region (G3BP1, Homo sapiens, UniProt Q13283)
Sequence of UniProt Q13283 (whole entry, looked up): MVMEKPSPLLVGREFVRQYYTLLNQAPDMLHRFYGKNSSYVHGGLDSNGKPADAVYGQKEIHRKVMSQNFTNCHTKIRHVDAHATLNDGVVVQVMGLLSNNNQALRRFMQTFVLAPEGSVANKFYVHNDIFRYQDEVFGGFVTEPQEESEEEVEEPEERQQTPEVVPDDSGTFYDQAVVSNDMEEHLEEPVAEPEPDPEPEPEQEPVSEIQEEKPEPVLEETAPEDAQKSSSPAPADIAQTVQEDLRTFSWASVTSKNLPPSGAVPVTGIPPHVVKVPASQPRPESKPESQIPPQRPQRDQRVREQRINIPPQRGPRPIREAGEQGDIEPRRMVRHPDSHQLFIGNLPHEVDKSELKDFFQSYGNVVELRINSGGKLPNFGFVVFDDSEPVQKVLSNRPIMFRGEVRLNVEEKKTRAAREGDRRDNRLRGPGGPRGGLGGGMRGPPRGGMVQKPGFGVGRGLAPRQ
Shared flanks, not repeated: GGGAGUUCUACAGUCCGACGAUC … UGGAAUUCUCGGGUGUCAAGG
The log2 enrichment of `GCAGGAAGUAAAAACAAAUGGAAAUGCUUCGGAUAGUGGCAGGGGUGGGGGUUGCUAAGGAAAGGGUGGGAUGGGAGUGGGAAAAGAGUU` is reported as 2.06.
`AAGUCCUGUGCUACACAUCGUAUGUACCGAAUCGGGUUUGGGGUUUGGGUUUGGGGAAAGUAUUAUGUUACGCCGUUCGGAUCUGCACUU` has a log2 enrichment of 1.88.
`AAGUCCUGUGCUACACAUCGUAUGUACCGAAUCGGGUUUUGGGUUUUGGGUUUUGGAAAGUAUUAUGUUACGCCGUUCGGAUCUGCACUU` gave a log2 enrichment of -1.17.
With `CCUGUGCUACACAUCGUAUGUACCGAAUCGGGGUUUUUUGGGGUUUUUUGGGGUUUUUUGGAAAGUAUUAUGUUACGCCGUUCGGAUCUG` the log2 enrichment was -0.936.
The log2 enrichment of `UGGCCCCGGUGGCAUGCGGGGAGGAAGAGGUGGCCUCAUGGAUCGUGGUGGUCCCGGUGGAAUGUUCAGAGGUGGCCGUGGUGGAGACAG` is reported as 2.17.
The log2 enrichment of `AGUCCUGUGCUACACAUCGUAUGUACCGAAUCGGGAAAAAGGGUUUUUUUGGGAGGGAAAGUAUUAUGUUACGCCGUUCGGAUCUGCACU` is reported as 0.309.
`AAGUCCUGUGCUACACAUCGUAUGUACCGAAUCGGGAAAAAAAGGGUGGGUUUGGGAAAGUAUUAUGUUACGCCGUUCGGAUCUGCACUU` has a log2 enrichment of 1.06.
For `GUCCUGUGCUACACAUCGUAUGUACCGAAUCAAACCCCCAAAUUUUUAAACCCCCAAAAAAGUAUUAUGUUACGCCGUUCGGAUCUGCAC`, the log2 enrichment was -0.869.

Study 5 — technique: protein-binding microarray; molecule type: double-stranded DNA, one strand shown; medium: in vitro; concentration: not given; reading: higher = stronger binding
Target: Max-binding protein MNT, bHLH-zipper, MAX partner unstated (MNT, Homo sapiens, UniProt Q99583, residues 220-300)
Notes: k-mer, scored over probes, only values ≥0.25
Target sequence (chain): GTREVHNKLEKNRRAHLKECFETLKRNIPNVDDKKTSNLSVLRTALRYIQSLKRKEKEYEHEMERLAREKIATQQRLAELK
`CGTGACTA` gave an E-score of 0.38.
The E-score of `ATGTGCAC` is reported as 0.421.
`ATGAGGGC` gave an E-score of 0.325.
With `CCAACACG` the E-score was 0.318.
The E-score of `CGACGGGC` is reported as 0.304.

Study 6 — read-out: enzyme activity; mode: inhibitor
Target: Replicase polyprotein 1ab, main protease (rep, Severe acute respiratory syndrome coronavirus 2, UniProt P0DTD1)
CC(C)(C)OC(=O)NCCc1nnc(S(=O)(=O)Cc2ccc(Cl)cc2Cl)o1 has an IC50 of 7.55 µM.
S=C=Nc1cccc(NC(=S)NCCCCNC(=S)Nc2cccc(N=C=S)c2)c1 gave an IC50 of over 20 µM.
COc1ccc(C(=O)n2nc(-c3ccccc3)nc2N)cc1OC has an IC50 of over 20 µM.
For CCC[C@H](NC(=O)/C(C#N)=C/c1cccc(Br)n1)c1ccccc1, the IC50 was over 20 µM.

Excerpt of the above (study 1):
The inhibition of COc1ccc(-c2oc3c(CC=C(C)C)c(O)cc(O)c3c(=O)c2O)cc1 is reported as 8.13%.
With O=C1C[C@@H](c2ccc(O)cc2)Oc2cc(O)cc(O)c21 the inhibition was 1.49%.
With CN1CCc2cccc3c2[C@H]1Cc1ccc(O)c(O)c1-3 the inhibition was 9.14%.
